# Experimental data pooled from the literature.
# Compare with care: the assays were run in different laboratories. Values joined by “and” are separate records of one study, mostly repeats; a detail may differ. Numbers after ± are the reported error.
# Chain of UniProt Q9BXA7 (whole entry, looked up): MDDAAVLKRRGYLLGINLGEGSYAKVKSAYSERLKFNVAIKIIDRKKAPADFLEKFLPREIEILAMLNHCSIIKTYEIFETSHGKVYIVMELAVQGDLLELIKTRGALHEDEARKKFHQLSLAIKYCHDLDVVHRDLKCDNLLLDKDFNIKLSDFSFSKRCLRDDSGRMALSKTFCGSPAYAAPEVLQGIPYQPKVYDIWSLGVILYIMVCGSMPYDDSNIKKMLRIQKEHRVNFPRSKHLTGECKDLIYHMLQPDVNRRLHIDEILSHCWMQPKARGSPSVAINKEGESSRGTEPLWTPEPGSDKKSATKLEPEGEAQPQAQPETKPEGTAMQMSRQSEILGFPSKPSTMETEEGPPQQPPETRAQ
# Chain of UniProt Q15370 (whole entry, looked up): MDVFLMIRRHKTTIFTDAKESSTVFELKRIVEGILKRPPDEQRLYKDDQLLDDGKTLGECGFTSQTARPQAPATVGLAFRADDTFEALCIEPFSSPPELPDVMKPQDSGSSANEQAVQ
# Chain of UniProt Q9NS66 (whole entry, looked up): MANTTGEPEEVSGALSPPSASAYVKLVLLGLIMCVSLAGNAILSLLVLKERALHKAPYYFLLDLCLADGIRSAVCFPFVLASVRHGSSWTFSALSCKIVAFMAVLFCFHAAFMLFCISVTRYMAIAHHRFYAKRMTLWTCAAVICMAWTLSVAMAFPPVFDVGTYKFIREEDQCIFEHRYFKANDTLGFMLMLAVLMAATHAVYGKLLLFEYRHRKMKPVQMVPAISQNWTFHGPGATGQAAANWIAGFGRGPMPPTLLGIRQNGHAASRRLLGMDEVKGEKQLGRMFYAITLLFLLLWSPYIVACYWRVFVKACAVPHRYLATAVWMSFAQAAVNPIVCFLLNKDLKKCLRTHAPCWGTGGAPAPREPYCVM
SMILES,target or system,test,system,setting,how to read,quantity,value
CC(=O)Nc1nnc(N2CCN([C@@H](C)c3ccc4c(c3)OCO4)CC2)s1,,item: tau pS202/pT205 (AT8),"hTau P301L mice, brainstem and hippocampus","dose not given, 6 months, chronic treatment",,phospho-tau level,no effect
NC(=O)c1ncn([C@@H]2O[C@H](CO)[C@@H](O)[C@H]2O)c1N,,"binding, equilibrium dialysis LC-MS",,"5 µM, thermostabilized A2AR-BRIL construct","reference: no-protein control, direction not given",z-scored log2 fold change,0.174
CN1CCN(S(=O)(=O)c2cc([N+](=O)[O-])ccc2N(CCOS(C)(=O)=O)CCOS(C)(=O)=O)CC1,,,"NSG mice, sample BF PDX","intraperitoneal, 25 mg/kg weekly x3",,event-free survival,4.8 days
CC[C@H](C)[C@H](NC(=O)[C@H](Cc1ccccc1)NC(=O)[C@H](CCC(=O)O)NC(=O)[C@H](CCCNC(=N)N)NC(=O)[C@H](C)NC(=O)[C@H](C)NC(=O)[C@H](CCC(N)=O)NC(=O)[C@H](CCC(=O)O)NC(=O)[C@H](CCC(=O)O)NC(=O)[C@H](CC(C)C)NC(=O)[C@H](Cc1ccc(O)cc1)NC(=O)[C@H](CO)NC(=O)[C@H](CO)NC(=O)[C@@H](NC(=O)[C@H](CC(=O)O)NC(=O)[C@H](CO)NC(=O)[C@@H](NC(=O)[C@H](Cc1ccccc1)NC(=O)[C@@H](NC(=O)CNC(=O)[C@H](CCC(=O)O)NC(=O)[C@H](C)NC(=O)CCc1c[nH]cn1)[C@@H](C)O)[C@@H](C)O)C(C)C)C(=O)N[C@@H](C)C(=O)N[C@@H](Cc1c[nH]c2ccccc12)C(=O)N[C@@H](CC(C)C)C(=O)N[C@H](C(=O)N[C@@H](CCCNC(=N)N)C(=O)NCC(=O)N[C@@H](CCCNC(=N)N)C(=O)N[C@@H](CCCCNC(=O)COCCOCCNC(=O)COCCOCCNC(=O)CC[C@H](NC(=O)CCCCCCCCCCCCCCCCC(=O)O)C(=O)O)C(=O)NCC(=O)NCC(=O)N[C@@H](CO)C(=O)N[C@@H](CCCCNc1c(NCCCCCN(O)C(=O)CCC(=O)NCCCCCN(O)C(=O)CCC(=O)NCCCCCN(O)C(C)=O)c(=O)c1=O)C(=O)O)C(C)C [zirconium-89 labelled],,ex vivo gamma counting,"rat, femur","subcutaneous, 3 nmol/kg, 4 h, together with: [89Zr]-labelled peptide",,tissue uptake,0.08 %ID/g
CC(C)C1CCC(N2CCC(N3C(=O)C(=O)c4ccccc43)CC2)CC1 (stereo not shown),,,conscious Sprague-Dawley rat,"intravenous bolus, 100 nmol/kg",,peak decrease in mean arterial pressure,-38 ± 3 mmHg
CC[C@H](C)[C@@H]1NC(=O)[C@@H]2CCCN2C(=O)[C@H](CC(C)C)NC(=O)[C@H](CC(C)C)NC(=O)CNC(=O)[C@@H](NC(=O)[C@@H](NC(=O)[C@H](CC(=O)O)NC(=O)CNC(=O)[C@@H](NC(=O)[C@H](C)NC(=O)CNC(=O)[C@H](CCCCN)NC(=O)[C@H](CC(C)C)NC(=O)[C@H](CC(C)C)NC(=O)[C@H](CCCCN)NC(=O)CNC(=O)[C@@H](NC(=O)[C@@H](N)CC(C)C)C(C)C)C(C)C)C(C)C)CSSC[C@@H](C(=O)O)NC1=O,,"RNA-seq, item: H3f3a mRNA","mouse traumatic brain injury, frontal cortex and hippocampus",dose not given,reference: TBI plus compound vs TBI,log2 fold change,-0.924
CCCCCCCCCC(=O)N[C@@H](Cc1c[nH]c2ccccc12)C(=O)N[C@H](CC(N)=O)C(=O)N[C@@H](CC(=O)O)C(=O)N[C@@H]1C(=O)NCC(=O)N[C@@H](CCCN)C(=O)N[C@@H](CC(=O)O)C(=O)N[C@H](C)C(=O)N[C@@H](CC(=O)O)C(=O)NCC(=O)N[C@H](CO)C(=O)N[C@@H]([C@H](C)CC(=O)O)C(=O)N[C@@H](CC(=O)c2ccccc2N)C(=O)O[C@@H]1C,,calcein leakage,DOPC/DOPG/CHOL liposomes,"concentration not given, together with: 40 mM CaCl2",,maximum fusion,91 ± 4%
C[C@H]1CN(c2n[nH]c3nc(N[C@H]4CC[C@H](NS(=O)(=O)CCC(F)(F)F)CC4)ncc23)CCO1,"Elongin-B (Homo sapiens, UniProt Q15370)","Kinobeads competition, item: TCEB2",,"0.032 µM, unit not given",reference: vehicle,remaining binding,0.93
[131I-].[Na+],,,"paediatric patients, differentiated thyroid carcinoma, intermediate risk","dose not given, retrospective",,patients with indeterminate response or progression,16.3%
C[C@]1(CO)Cc2ncn(-c3ccc(C#N)c(Cl)c3)c2C(=O)O1,,"aldosterone synthesis, inhibitor, item: sodium","healthy Japanese adults, urine","80 mg, 0-24 h after first dose, multiple rising dose",,urinary excretion,116 mmol
CCCCCOc1ccc(-c2ccc(-c3ccc(C(=O)N[C@H]4C[C@@H](O)[C@@H](O)NC(=O)[C@@H]5[C@@H](O)[C@@H](C)CN5C(=O)[C@H]([C@@H](C)O)NC(=O)[C@H]([C@H](O)[C@@H](O)c5ccc(O)cc5)NC(=O)[C@@H]5C[C@@H](O)CN5C(=O)[C@H]([C@@H](C)O)NC4=O)cc3)cc2)cc1,,calcein leakage,DOPC/DOPG/CHOL liposomes,"concentration not given, together with: 20 wt% PEG-8000",,maximum fusion,2 ± 2%
C[C@@H](O)[C@@H](CO)NC(=O)[C@@H](CCCNC(=N)N)NC(=O)[C@@H]1CCCN1C(=O)[C@@H]1CSSC[C@H](NC(=O)[C@H](Cc2ccccc2)NC(=O)CN2CCN(CC(=O)O)CCN(CC(=O)O)CCN(CC(=O)O)CC2)C(=O)N[C@@H](Cc2ccc(O)cc2)C(=O)N[C@@H](Cc2ccccc2)C(=O)N[C@@H](CCC(N)=O)C(=O)N[C@@H](CC(N)=O)C(=O)N1 [gallium-68 labelled],,,"healthy Wistar rat, small intestine","intravenous, 8 MBq, 120 min, individual animals",,tissue uptake,0.02 %ID/g
COc1cc(Nc2ncc(F)c(Nc3ccc4c(n3)NC(=O)C(C)(C)O4)n2)cc(OC)c1OC,NMDA receptor agonist site,,,,,IC50,> 10 µM
COc1c(CCC[P+](c2ccccc2)(c2ccccc2)c2ccccc2)cc2c(c1OC)OCO2.[I-],MDA-MB-468,SRB,,,,TGI,-5.93 log M
CCC(=O)C[C@@H](O)C[C@@H](C)C[C@H](NC(=O)[C@@H]1C[C@H](C)CN1C(=O)/C=C/[C@@H](C)CC)C(=O)N[C@H](C(=O)NC(C)(C)C(=O)N[C@@H](CC(C)C)C(=O)N[C@@H](CC(C)C)C(=O)NC(C)(C)C(=O)NC(C)(C)C(=O)NCCC(=O)N[C@@H](C)CN(C)C)[C@H](O)C(C)C,,,giant unilamellar vesicles,1 µM,,HPTS leakage,inactive
Clc1cc2c(cc1Cl)Oc1cc(Cl)c(Cl)cc1O2,,"RNA-Seq, item: Ptgs1","female Sprague-Dawley rat, liver",dose not given,reference: vehicle,mRNA level,1.4 fold
Cc1cn(-c2cc(NC(=O)c3ccc(C)c(Nc4nccc(-c5cccnc5)n4)c3)cc(C(F)(F)F)c2)cn1,,,human patients,"dose not given, 12 to 6 months, within treated group, unit not given",reference: baseline,ADAS-Cog maze time change,3.68
C[C@H]1O[C@@H](O[C@H]2CC[C@@]3(C)[C@@H](CC[C@]4(C)[C@@H]3C=C[C@]35OC[C@@]6(CCC(C)(C)C[C@H]63)[C@@H](O)C[C@]54C)[C@]2(C)CO)[C@H](O)[C@@H](O[C@@H]2O[C@H](CO)[C@@H](O)[C@H](O)[C@H]2O)[C@H]1O,,,"Mus musculus, chronic-plus-binge ethanol-fed, AAV8-TBG-Null vector","oral, high dose, during administration",,body weight change,-0.5 g and -0.7 g and -1.6 g and -1.4 g and -1.3 g and 0 g
CC[C@H](C)[C@H](NC(=O)[C@H](C)NC(=O)[C@H](CCCCN)NC(=O)[C@H](CC(C)C)NC(=O)[C@H](C)NC(=O)[C@@H](NC(=O)[C@H](Cc1c[nH]cn1)NC(=O)[C@H](CC(C)C)NC(=O)[C@@H](NC(=O)[C@@H](NC(=O)[C@H](CCCCN)NC(=O)[C@H](C)NC(=O)[C@H](C)NC(=O)[C@H](CO)NC(=O)[C@H](CCCCN)NC(=O)[C@H](Cc1ccccc1)NC(=O)[C@@H](NC(=O)[C@H](CCCCN)NC(=O)[C@H](CC(C)C)NC(=O)[C@H](Cc1ccccc1)NC(=O)[C@H](CO)NC(=O)[C@H](CCCCN)NC(=O)[C@H](Cc1c[nH]c2ccccc12)NC(=O)[C@H](CCCCN)NC(C)=O)[C@@H](C)O)[C@@H](C)O)C(C)C)[C@@H](C)O)C(=O)N[C@@H](CO)C(=O)N[C@@H](CO)C(N)=O,Staphylococcus aureus,,MSSA,67 strains,,MIC90,8 µg/mL
C[C@H](NC(=O)c1c(C(F)F)nn(C)c1Oc1cccc(C(F)(F)F)c1)c1ccc(C(=O)O)cc1,,,"human, advanced tumours",750 mg,,median progression-free survival,1.3 months
COc1cc(CCC[P+](c2ccccc2)(c2ccccc2)c2ccccc2)c(OC)c2c1OCO2.[I-],OVCAR-3,SRB,,,,TGI,-4.97 log M
CC(=O)c1c(C)c2cnc(Nc3ccc(C4CCN(CCS(C)(=O)=O)CC4)cn3)nc2n(C2CCCC2)c1=O,,tumour growth,"mouse, MDA-MB-435S xenograft","oral, 80 mg/kg twice daily, 25 days",,T/C,15%
Cc1nc(Nc2ccc(CC(=O)O)cc2)nc(Nc2ccc(F)c(C(F)(F)F)c2)c1C,,,"C57BL/6J mouse, high-fat diet MASH model, white adipose tissue","intraperitoneal, 0.3 mg/kg daily, 60% fat diet for 12 weeks, dosed final four weeks",reference: untreated,adipocyte diameter,decreased
COc1ccc(N2C(=O)N(c3c(C)cccc3Cl)Cc3cnc(Nc4ccc(C5CCN(C)CC5)cc4OC)nc32)nc1,"TSSK1B (Homo sapiens, UniProt Q9BXA7)","kinase activity, inhibitor",,"0.5 µM, TSSK1",,inhibition,87%
C[C@]12CC[C@H](O)C[C@H]1CC[C@@H]1[C@@H]2CC[C@]2(C)[C@@H](c3ccc(=O)oc3)CC[C@]12O,,,female nude mouse LCC2 xenograft,"0.5 mg/kg, day 13, tamoxifen-resistant",,tumour volume,84.7 mm3 and 67.4 mm3 and 86.6 mm3 and 62.2 mm3 and 82.9 mm3 and 87.3 mm3 and 80.6 mm3
CCCCC1(CCCC)CN(c2ccccc2)c2cc(SC)c(OCC(=O)N[C@@H](C(=O)NCC(=O)O)c3ccccc3)cc2S(=O)(=O)C1,,item: LDL cholesterol,"human, serum","2.5 mg once daily, day 5",,serum LDL-C,106 mg/dL
Oc1ccc2c3c1O[C@H]1[C@@H](O)CC[C@@]4(O)[C@@H](C2)N(CC2CCC2)CC[C@]314,"Probable G-protein coupled receptor 173 (GPR173, Homo sapiens, UniProt Q9NS66)","β-arrestin recruitment, TANGO luminescence, item: GPR173",,concentration not given,reference: basal luminescence,log2 fold change,0.5
CS(=O)(=O)c1ccc(-c2nnc(/C=C/c3nnc(-c4ccc(C#N)cc4)o3)n2-c2ccccc2Cl)nc1,,"RNA-seq GSEA, item: FALLER_ENTEROCYTE_PRO_MOUSE","organoids, small intestinal, Apc Q1405X, mouse","dose not given, knockout organoids","reference: DMSO, direction not given",normalized enrichment score,-2.34
